Measured values from different studies.
± gives the spread as reported.

SMILES	tested on	test	test system	conditions	scale	quantity	value
COc1ccc2nc([S+]([O-])Cc3ncc(CO)c(OC)c3C)[nH]c2c1 (stereo not drawn)	–	–	human, dried plasma spots	2 h, with: fluvoxamine and voriconazole	–	R/S enantiomer ratio	3.37
NC[C@H]1O[C@H](O[C@H]2[C@H](O)[C@@H](O[C@H]3O[C@H](CO)[C@@H](O)[C@H](N)[C@H]3O)[C@H](N)C[C@@H]2N)[C@H](N)C[C@@H]1O	–	starch gel membrane permeability	Gram-negative envelope surrogate	200 µM, 45 min, pH 7.4	–	amount permeated	1.04 nmol
O=C(O)CCC(=O)O.[2H]C([2H])([2H])Oc1cc(C)c2[nH]ccc2c1CN1CC[C@@H](C2CC2)C[C@H]1c1ccc(C(=O)O)cc1	–	multiple ascending dose	healthy Chinese subjects	125 mg twice daily	–	subjects with TEAE Diarrhea	0%
COc1c(O)c(C)cc2c1C(=O)c1c(cc(O)c(O)c1O)C2=O	HepaRG co-cultured with HK-2	MTT	–	66.67 µM, 24 h	baseline: untreated control	cell viability	58 ± 8.61%
CCC(=O)N(CCC(c1ccc2c(c1)OCO2)c1ccccc1OC)Cc1ccccc1 (stereo not drawn)	–	–	female athymic nude mouse, blood	i.p., 60 mg/kg twice daily, 14 days, group mean	–	PDW	6 fL
CN1C(=O)[C@@H](NC(=O)c2nnc(Cc3ccccc3)[nH]2)COc2cccnc21	–	–	human, plasma	oral, 100 mg once daily, day 1, geometric mean	–	Cmax	1900 ng/mL
Cc1cc(Nc2cc3ncccc3c(N[C@@H]3C[C@H]4CC[C@@H](C3)N4CCC#N)n2)n[nH]1	–	–	human	100 mg, day 1	–	AUC(0-24)	13.2 ng·h/mL
C[C@H]1Oc2cc(cnc2N)-c2c(nn(C)c2C#N)CN(C)C(=O)c2ccc(F)cc21	–	–	human patients, plasma	oral, dose not given, cycle 2 day 1, mean, with: avelumab	–	AUCtau, dose-normalized	64 ng·h/mL/mg
COc1cccc(-c2n[nH]c(SCc3ccccn3)n2)c1OC	–	–	Sprague-Dawley rat, plasma	oral, 10 mg/kg	baseline: female over male	AUC(0-last) ratio	0.53
Cc1ccc([C@@H]2O[C@H](CO)[C@@H](O)[C@H](O)[C@H]2O)cc1Cc1ccc(-c2ccc(F)cc2)s1	–	refers to: inorganic phosphorus	Japanese type 2 diabetes patients	200 mg, day 17, 24 h urine collection	baseline: baseline	urinary phosphate excretion change	49.9 mg
Cn1c(=O)[nH]c(=O)c2[nH]cnc21	–	–	human, both sexes, plasma	–	–	samples above LOQ	100%
CCc1cc(C(=O)NC)c2nccc(N3CCc4c(cc(Cn5ccnc5)cc4-c4cn(C)nc4C(F)(F)F)C3=O)c2c1	–	refers to: Neut	Sprague Dawley rat	oral, 50 mg/kg once daily, 7 days	baseline: vehicle	change in clinical chemistry or haematology parameter	-6.64%
COc1cc(C=CC(=O)O)ccc1OS(=O)(=O)O	–	–	human plasma	median	–	plasma concentration	1170 nM
COC(=O)c1cn(C)c2ccc(-c3cccnc3)cc12	COS-7	–	–	10 µM, 24 h, 0.1% DMSO, unit not given	baseline: vehicle control	apoptotic cells	0.64 ± 0.17
Cc1c(C(=O)O)ccc2c3n(nc12)[C@@H]1[C@H](C3)N(CC2CC2)[C@@]2(C(=O)Nc3cc(Cl)ccc32)[C@H]1c1cccc(Cl)c1F	–	–	female BALB/c nude mice, SJSA-1 xenograft, plasma	oral, 1 mg/kg twice daily, 7 h	–	plasma concentration	509 nM
O=C1CCC(N2Cc3cc(CO)c(F)cc3C2=O)C(=O)N1 (stereo not drawn)	–	–	cynomolgus monkey, male	oral, 0.3 mg/kg parent drug, 0.5 h	–	plasma concentration	0.29 ± 0.24 ng/mL
Cn1cnc2[nH]c(=O)[nH]c(=O)c21	–	–	human, both sexes, cerebrospinal fluid	–	–	samples above LOQ	0%
CC(C)(C(=O)N1CCOc2c(C#N)cncc2C1)C(F)F	–	refers to: Dizziness	human	oral, 20 mg twice daily, 14 days, multiple ascending dose	–	subjects with adverse event	0%
O=c1cc(-c2ccccc2)oc2ccccc12	–	cyclic voltammetry	DMSO, 0.1 M Bu4NPF6	25 °C	–	half-wave potential	-1.59 V vs Ag/AgCl
CCN(CC)Cc1cc(Nc2ccnc3cc(Cl)ccc23)ccc1O	COS-7	WST-8	–	100 µM, 24 h, 0.1% DMSO, unit not given	baseline: control	metabolic activity	0.78 ± 0.23
CCOc1c([C@H](C)n2nc(C)c3c(N)ncnc32)cc(Cl)c(F)c1[C@@H]1CNC(=O)C1	–	ECG	previously treated B-cell malignancy patients	oral, 15 mg once daily, baseline below thresholds	–	observations with PR ≤200 ms	66.7%
Cn1cc(Nc2nccc(-c3ccc4c(c3)CN(C3COC3)CC[C@H]4NC(=O)c3cn(C(C)(C)C)nn3)n2)cn1	–	–	human, whole blood	50 mg twice daily, day 7	baseline: pre-dose baseline	NK cell count change	151%
COc1c(O)cccc1OS(=O)(=O)O	–	–	human plasma	median	–	plasma concentration	1690 nM
Cc1c2oc3c(C)ccc(C(=O)N[C@@H]4C(=O)N[C@H](C(C)C)C(=O)N5CCC[C@H]5C(=O)N(C)CC(=O)N(C)[C@@H](C(C)C)C(=O)O[C@@H]4C)c3nc-2c(C(=O)N[C@@H]2C(=O)N[C@H](C(C)C)C(=O)N3CCC[C@H]3C(=O)N(C)CC(=O)N(C)[C@@H](C(C)C)C(=O)O[C@@H]2C)c(N)c1=O	–	–	children with cancer, plasma	dose not given, 15 min	–	median plasma concentration	24.4 µg/L

SMILES	tested on	test	test system	conditions	scale	quantity	value
C[Si](C)(C)O[Si](C)(C)C	–	regression	–	25 °C	–	log KAW	2.49
CCN1/C(=C/C(C)=O)Sc2ccc(F)cc21	–	–	cynomolgus monkey	oral, 30 mg/kg, 6 h post-dose	–	systolic blood pressure	115 ± 6 mmHg
COc1cc(Nc2ncc3c(n2)-c2ccc(Cl)cc2C(c2c(F)cccc2OC)=NC3)ccc1C(=O)O	–	refers to: Headache, all grades	cancer patients, phase 1/2	oral, dose not given, with: pembrolizumab	–	patients with adverse event	13%
CNC(=O)c1cc(Oc2ccc(NC(=O)Nc3cc(C(C)(C)C)nn3-c3ccc4ncccc4c3)c(F)c2)ccn1	–	–	human	oral, dose not given, cycles 1 and 2, Medium Cmax subgroup	–	patients with any AE of special interest	87%
Cc1nc2ccc(OCc3ccc(C(F)(F)F)cc3)cc2[nH]1	–	–	male Balb/c mice, brain	oral, 10 mg/kg, 72 h	baseline: tissue over plasma	tissue/plasma ratio	5.3 ± 2.6
CCCCOc1nc(N)c2c(n1)N(Cc1cccc(CN3CCCC3)c1)CC(=O)N2	–	–	human	oral, 2 mg, drug interaction trial	–	drug-related TEAE	6.7%
[H]/N=C(/N)N[C@H]1[C@H](O)[C@@H](O)[C@H](O[C@@H]2O[C@@H](C)[C@](O)(C=O)[C@H]2O[C@@H]2O[C@@H](CO)[C@H](O)[C@@H](O)[C@@H]2NC)[C@@H](N/C(N)=N\[H])[C@@H]1O	–	starch gel membrane permeability	Gram-negative envelope surrogate	200 µM, 45 min, pH 7.4	–	amount permeated	1.34 nmol
C=CC(=O)N1CCC(c2ccc(C(N)=O)c(-c3ccc(Oc4ccccc4)cc3)n2)CC1	–	–	relapsed/refractory mantle cell lymphoma patients	oral, dose not given, part, all doses, CTCAE v4.03	–	TEAE rate	50%
N#Cc1ccc2c(c1)[C@H]1CCCN(C(=O)c3ccc4[nH]cnc4c3)[C@H]1C2	–	–	human	40 mg, day 7	baseline: baseline	ACTH level change	1.1 pmol/L
C[C@@H](N)c1cc(Cl)ccc1Cn1c(=S)[nH]c(=O)c2[nH]ccc21	–	–	human matched controls	oral, 2.5 mg single dose	–	drug-related adverse events	0%
N#CCNC(=O)c1ccc(-c2ccnc(Nc3ccc(N4CCOCC4=O)cc3)n2)cc1	–	–	healthy volunteers, plasma	dose not given, with: ritonavir multiple-dose	baseline: with ritonavir over alone	AUCtau geometric mean ratio	124%
C[C@@H](N)C1CCN(S(=O)(=O)c2cccc3cnccc23)CC1	–	–	healthy volunteers, fasted, plasma	oral, 250 mg	–	t1/2	61.8 min
O=S(=O)(O)Oc1cccc(O)c1O	–	–	human plasma	mean	–	plasma concentration	1130 nM
O=C(COc1ccc(Cl)cc1)NC12CC(c3nnc([C@H]4C[C@@H](OC(F)(F)F)C4)o3)(C1)C2	–	–	human both sexes	oral, 100 mg once daily, 14 days	–	drug-related TEAE participants	85.7%
C[C@H]1[C@H](NC(=O)/C(=N\OC(C)(C)C(=O)O)c2csc(N)n2)C(=O)N1S(=O)(=O)O	–	starch gel membrane permeability	Gram-negative envelope surrogate	200 µM, 45 min, pH 7.4	–	amount permeated	3.1 nmol
CN(CCCN1CCN(C(=O)CN2CCN(CC(=O)[O-])CCN(CC(=O)[O-])CCN(CC(=O)[O-])CC2)CC1)c1ccc2nccc(C(=O)NCC(=O)N3CC(F)(F)C[C@H]3C#N)c2c1.[68Ga+3]	–	–	mice, HT-1080.hFAP and HT-1080 wild-type xenografts, spleen	iv, 500 pmol, 1 h post injection	–	uptake	0.3 ± 0.1 %IA/g
COc1c(O[C@@H]2O[C@H](CO)[C@@H](O)[C@H](O)[C@H]2O)cc2c(c1O)C(=O)c1c(cc(C)c(O)c1OC)C2=O	HepaRG co-cultured with HK-2	MTT	–	16.67 µM, 24 h	baseline: untreated control	cell viability	101 ± 9.23%
CC(Oc1ccc(O)cc1)C(=O)O (stereo not drawn)	–	–	human plasma	median	–	plasma concentration	342 nM
OCCOCc1ccc(-c2noc(-c3ccc(OCC[18F])c(C(F)(F)F)c3)n2)cc1	–	–	Macaca mulatta, liver	male phantom OLINDA/EXM	–	absorbed radiation dose	0.12 mSv/MBq
Oc1ccc(/C=C/c2cc(O)cc(O)c2)cc1	–	–	male Wistar rats, plasma	oral, 10 mg/kg	–	tmax	30 ± 7.2 min
Cc1cc(-c2nccc3c2ccn3CC(=O)Nc2ccc(-c3cnccn3)cn2)ccn1	–	–	human	MAD part, 20 mg once daily	–	subjects with any IMP-related TEAE	33.3%
CCc1nc(C(N)=O)c(Nc2ccc(N3CCC(N4CCN(C)CC4)CC3)c(OC)c2)nc1NC1CCOCC1	–	–	Japanese patients, plasma	oral, 80 mg, cycle 1 day 28, multiple doses, mean	baseline: single dose	accumulation ratio (AUC)	5.97
N=C(N)NCCNC(=O)C1(Nc2ccccc2)CCN(Cc2ccccc2)CC1	–	–	Sprague-Dawley rats (male), plasma	oral, 50 mg/kg	–	clearance	0.9 ± 0.1 L/h
CCO	–	–	human	concentration not given	–	number of TEAEs	45

Repeated from above:
SMILES	tested on	test	test system	conditions	scale	quantity	value
N=C(N)NCCNC(=O)C1(Nc2ccccc2)CCN(Cc2ccccc2)CC1	–	–	Sprague-Dawley rats (male), plasma	oral, 50 mg/kg	–	clearance	0.9 ± 0.1 L/h
CCCCOc1nc(N)c2c(n1)N(Cc1cccc(CN3CCCC3)c1)CC(=O)N2	–	–	human	oral, 2 mg, drug interaction trial	–	drug-related TEAE	6.7%
N#CCNC(=O)c1ccc(-c2ccnc(Nc3ccc(N4CCOCC4=O)cc3)n2)cc1	–	–	healthy volunteers, plasma	dose not given, with: ritonavir multiple-dose	baseline: with ritonavir over alone	AUCtau geometric mean ratio	124%
